Assay results gathered from unrelated publications.
Parts stem from different laboratories: compare values within a part only. Substitutions count along the parent as printed.

Study 1 — method: protein-binding microarray; molecule type: double-stranded DNA, one strand shown; matrix: in vitro; tested at: 0.8 µM; notes: whole 60-bp probe, no competitor; direction: higher = stronger binding; constant ends, left off below: … GTCTTGATTCGCTTGACGCTGCTG
Target: Centromere-binding protein 1, full length, N-terminal tag (CBF1, Saccharomyces cerevisiae, UniProt P17106, residues 1-351)
Sequence of UniProt P17106 (whole entry, looked up): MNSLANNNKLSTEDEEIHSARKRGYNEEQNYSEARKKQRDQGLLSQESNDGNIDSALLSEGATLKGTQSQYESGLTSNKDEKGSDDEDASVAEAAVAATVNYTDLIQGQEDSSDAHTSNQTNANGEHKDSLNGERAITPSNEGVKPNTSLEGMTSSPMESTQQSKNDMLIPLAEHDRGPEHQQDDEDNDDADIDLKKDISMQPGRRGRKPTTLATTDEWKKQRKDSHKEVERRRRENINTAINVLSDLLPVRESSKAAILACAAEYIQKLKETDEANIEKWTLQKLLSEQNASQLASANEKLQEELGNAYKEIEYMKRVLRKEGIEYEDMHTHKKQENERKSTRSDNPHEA
`GAAGTTTAGGTGAATCACGTGTGCCTGACCACCTAG` gave a fluorescence intensity of 9230 a.u.
`GAAGGGCAAAGACGATCCGTCACGAGCGATCATTAG` has a fluorescence intensity of 1020 a.u.
`CTATGCTCCACATAATACGTGGGTCAGACATAATTC` gave a fluorescence intensity of 521 a.u.
The fluorescence intensity of `TGTACGAAGCTATAGGTGATGACTATAGTAGTTAGG` is reported as 511 a.u.
`CTAAGGCTATATATATACGTGGTGAAATGAAATTTC` has a fluorescence intensity of 568 a.u.
The fluorescence intensity of `GAAGTGGTGCAAAGATGTGTCACGTTCTGGACCTAG` is reported as 2310 a.u.
With `GAAGGAAAAAGGTTTGTCACGAGCACCTAACTATAG` the fluorescence intensity was 1250 a.u.
The fluorescence intensity of `CTATTACAACATAATCACGCTTTCTTCTAGTTGTTC` is reported as 750 a.u.
`CTATGCAACGATTATCACGACACAACCTTGCCGTTC` gave a fluorescence intensity of 599 a.u.
The fluorescence intensity of `CTAACAAGCCAGGCGCACGCACCTTAATAAGTTTTC` is reported as 518 a.u.
With `GAAACTTATACGCATCACCCTGTATTTTTGCAATAG` the fluorescence intensity was 499 a.u.
For `TGTACGAAGCTATAACACGTTTTTATAGTAGTTAGG`, the fluorescence intensity was 698 a.u.
`GAAATCGTTGCCATGTACGTGCCCTAACTGCAGTAG` has a fluorescence intensity of 528 a.u.
`GAATGCCTGCAGACCCACGTCTACAAATTTTGGTAG` gave a fluorescence intensity of 505 a.u.
With `CTATATCGAATCTCTCACGATATATATATATATTTC` the fluorescence intensity was 1420 a.u.
`GAAAATGTGCTGCGGGCTGATGTCCTCCACACGTAG` has a fluorescence intensity of 476 a.u.

Study 2 — method: universal PBM; molecule type: double-stranded DNA, one strand shown; matrix: in vitro; tested at: not given; direction: higher = stronger binding
Target: Sal-like protein 4, full length isoform B (SALL4, Homo sapiens, UniProt Q9UJQ4-2, residues 1-616)
Notes: 8-mer, flanks averaged, mean of replicates
`ACTGCATG` has an E-score of 0.0208.
The E-score of `AGAAGAAC` is reported as -0.0295.
`GTTTATGA` has an E-score of 0.367.
The E-score of `CTACGGAC` is reported as -0.146.
For `AAGCTGAC`, the E-score was -0.00699.
`ACCAGCTA` has an E-score of -0.0128.
For `ACTATTTA`, the E-score was 0.268.
With `CCCAAAGC` the E-score was -0.101.
With `AAATACCC` the E-score was -0.0216.
For `GGCGTGTA`, the E-score was -0.0488.
`CAGGGTCG` has an E-score of -0.351.
With `CAAGTTCG` the E-score was -0.151.
For `GATCATGC`, the E-score was -0.113.
With `ACTGAAAT` the E-score was 0.203.
`AGATGATA` gave an E-score of 0.242.
For `CGAAGTGC`, the E-score was 0.0324.

Study 3 — method: protein-binding microarray; molecule type: double-stranded DNA, one strand shown; matrix: in vitro; tested at: not given; direction: higher = stronger binding
Target: Protein C-ets-1 (ETS1, Homo sapiens, UniProt P14921, residues 1-441, full length assumed)
Sequence of UniProt P14921 (whole entry, looked up): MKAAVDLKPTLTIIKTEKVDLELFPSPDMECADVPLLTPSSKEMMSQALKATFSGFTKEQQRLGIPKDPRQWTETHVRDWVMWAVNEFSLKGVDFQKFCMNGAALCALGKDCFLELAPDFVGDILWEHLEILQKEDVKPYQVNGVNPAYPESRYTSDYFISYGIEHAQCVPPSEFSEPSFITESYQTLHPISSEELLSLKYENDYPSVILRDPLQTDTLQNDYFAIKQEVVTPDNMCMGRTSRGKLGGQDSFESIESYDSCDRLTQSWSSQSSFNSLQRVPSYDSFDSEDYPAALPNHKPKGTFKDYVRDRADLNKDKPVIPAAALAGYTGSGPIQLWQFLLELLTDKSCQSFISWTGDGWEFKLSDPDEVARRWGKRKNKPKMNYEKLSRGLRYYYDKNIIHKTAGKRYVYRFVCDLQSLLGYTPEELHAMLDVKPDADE
Notes: k-mer, scored over probes, only values ≥0.25
For `CGGATTCC`, the E-score was 0.277.
For `AGTACTTC`, the E-score was 0.32.
With `AGCCGGAA` the E-score was 0.479.
For `CCGGTGTC`, the E-score was 0.335.
With `CATCCTCA` the E-score was 0.264.
With `AGGGAGGG` the E-score was 0.285.
For `CCCCATCC`, the E-score was 0.378.
`CTTCCTTA` gave an E-score of 0.37.
`CAGGCGGA` has an E-score of 0.374.
The E-score of `CCGGTAAG` is reported as 0.364.
With `CTCCCCGC` the E-score was 0.303.
`CCCAGGAA` has an E-score of 0.37.
`CATCCGCG` has an E-score of 0.381.
`GATGTGTA` gave an E-score of 0.258.
The E-score of `ATCCTATC` is reported as 0.277.
`AACCGGGG` gave an E-score of 0.274.
For `AGCTTCCG`, the E-score was 0.483.
`AGGACATC` gave an E-score of 0.294.
For `CCAATCCG`, the E-score was 0.277.
`CCTCATCC` gave an E-score of 0.332.
With `ACTTCCAG` the E-score was 0.428.
`AACAGGAA` has an E-score of 0.455.
For `GAAGCGGA`, the E-score was 0.4.
`TATAGGAA` gave an E-score of 0.281.
`GGCGGGGA` gave an E-score of 0.293.

Study 4 — target: CREB3L4, bZIP domain (human); method: DHFR protein complementation; matrix: yeast; baseline: wild-type JUN-FOS pair; direction: higher = stronger binding
Notes: single substitutions, most at no-binding floor
Starting sequence: JUN, bZIP domain (human); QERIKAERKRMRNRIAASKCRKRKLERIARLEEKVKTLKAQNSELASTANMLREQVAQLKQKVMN; partner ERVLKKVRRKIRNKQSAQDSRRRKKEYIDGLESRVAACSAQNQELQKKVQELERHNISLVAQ
`L38C` gave a binding fitness of -1.56 natural log.
`A49W` has a binding fitness of -1.49 natural log.
With `T48C` the binding fitness was -1.54 natural log.
`I28C` gave a binding fitness of -1.11 natural log.
`R30C` has a binding fitness of -1.44 natural log.
The binding fitness of `Q41F` is reported as -1.47 natural log.
`Q41L` gave a binding fitness of -1.52 natural log.
For `L31G`, the binding fitness was -1.47 natural log.
For `A40P`, the binding fitness was -1.51 natural log.
`S47F` has a binding fitness of -1.31 natural log.
The binding fitness of `T48E` is reported as -1.36 natural log.
`E54L` has a binding fitness of -1.44 natural log.
`I28V` has a binding fitness of -1.51 natural log.
With `E54K` the binding fitness was -1.23 natural log.
`N42P` gave a binding fitness of -1.52 natural log.
For `L31C`, the binding fitness was -1.36 natural log.
With `A29I` the binding fitness was -1.61 natural log.
`S43E` has a binding fitness of -1.51 natural log.

Study 5 — method: DHFR PCA, deep sequencing; matrix: yeast; with: (+)-ABA 1.4 µM; baseline: wild-type fitted maximum; direction: higher = stronger binding
Target: ABI1, truncated, D143A, DHFR fusion (Arabidopsis thaliana)
Notes: methotrexate growth selection, single substitutions
Starting sequence: PYL1, truncated, DHFR fusion (Arabidopsis thaliana); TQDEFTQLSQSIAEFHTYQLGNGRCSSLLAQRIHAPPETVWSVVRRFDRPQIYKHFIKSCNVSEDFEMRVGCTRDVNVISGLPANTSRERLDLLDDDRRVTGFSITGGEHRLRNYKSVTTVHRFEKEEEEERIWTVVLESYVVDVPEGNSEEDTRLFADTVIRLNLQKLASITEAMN; partner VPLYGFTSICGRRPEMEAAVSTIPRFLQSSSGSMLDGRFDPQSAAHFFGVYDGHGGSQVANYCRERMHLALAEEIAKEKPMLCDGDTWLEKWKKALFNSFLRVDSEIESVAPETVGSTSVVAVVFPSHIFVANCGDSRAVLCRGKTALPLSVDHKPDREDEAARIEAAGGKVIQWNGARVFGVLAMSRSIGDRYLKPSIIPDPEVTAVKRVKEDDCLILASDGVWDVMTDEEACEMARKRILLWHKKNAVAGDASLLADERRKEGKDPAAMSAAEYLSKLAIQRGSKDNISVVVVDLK
`S26Y`: “relative binding score” 3.41%.
Under “relative binding score”, `D159N` is recorded as 46.5%.
`D92P`: “relative binding score” -11.6%.
`F66R` — result for “relative binding score”: 21.8%.
For `V100N`, “relative binding score” read -7.03%.
`H34E` — result for “relative binding score”: 46.3%.
`V136C` — result for “relative binding score”: 23.9%.
`L94H` — result for “relative binding score”: 38.7%.
Under “relative binding score”, `A158H` is recorded as 5.24%.
`S27Y`: “relative binding score” 14.6%.
For `H34F`, “relative binding score” read 34.2%.
`S59R` — result for “relative binding score”: 18.7%.
`R99I`: “relative binding score” -6.01%.
`E147M`: “relative binding score” 29%.
For `D159Y`, “relative binding score” read 1.68%.
`V161I`: “relative binding score” 90.9%.
For `T6I`, “relative binding score” read 41.8%.
`D92C` — result for “relative binding score”: -13.7%.
Under “relative binding score”, `L138H` is recorded as 13.8%.
Under “relative binding score”, `T6N` is recorded as 54.4%.
Under “relative binding score”, `E89S` is recorded as 3.35%.

Study 6 — target: CCNB2, cyclin fold, Cln2 fusion (human); method: yeast growth competition, sequencing; matrix: yeast; notes: weak parent motif; baseline: not given; direction: higher = stronger binding
Starting sequence: PKN2 docking peptide (human); VSAVRKLDFSDTM; partner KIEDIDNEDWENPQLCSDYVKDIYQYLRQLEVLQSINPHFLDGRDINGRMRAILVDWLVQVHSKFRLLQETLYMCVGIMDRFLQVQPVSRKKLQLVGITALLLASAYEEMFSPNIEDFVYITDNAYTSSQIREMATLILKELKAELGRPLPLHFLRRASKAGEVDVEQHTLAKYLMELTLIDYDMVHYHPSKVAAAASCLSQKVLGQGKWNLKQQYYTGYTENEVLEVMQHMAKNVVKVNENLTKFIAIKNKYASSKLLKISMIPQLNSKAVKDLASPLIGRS
Under “normalised enrichment score”, `VSAVRKLDLSDTM [F9L]` is recorded as 0.00315.
`VSAVRKLQFSDTM [D8Q]`: “normalised enrichment score” 0.0263.
For `VSAIRKLDFSDTM [V4I]`, “normalised enrichment score” read 0.177.
Under “normalised enrichment score”, `VSAVRKLDFSDQM [T12Q]` is recorded as 0.599.
`VSAVRDLDFSDTM [K6D]`: “normalised enrichment score” -0.442.
`VSAVRKLDFWDTM [S10W]` — result for “normalised enrichment score”: 0.174.
Under “normalised enrichment score”, `VSWVRKLDFSDTM [A3W]` is recorded as 0.975.
`VSAVRKPDFSDTM [L7P]` — result for “normalised enrichment score”: -0.0262.
`VSAVSKLDFSDTM [R5S]`: “normalised enrichment score” -0.167.
Under “normalised enrichment score”, `VNAVRKLDFSDTM [S2N]` is recorded as 0.504.
`VSAVRKLDFSCTM [D11C]`: “normalised enrichment score” 0.35.
For `VSAHRKLDFSDTM [V4H]`, “normalised enrichment score” read -0.214.
Under “normalised enrichment score”, `VSAWRKLDFSDTM [V4W]` is recorded as 0.212.
`VSLVRKLDFSDTM [A3L]` — result for “normalised enrichment score”: 2.32.
`VSAVRPLDFSDTM [K6P]` — result for “normalised enrichment score”: -1.45.
For `VSAVRKLDFPDTM [S10P]`, “normalised enrichment score” read 0.156.
`VSAVRKLDASDTM [F9A]`: “normalised enrichment score” 0.0409.
`VSAVRKLDCSDTM [F9C]`: “normalised enrichment score” 0.335.
Under “normalised enrichment score”, `VCAVRKLDFSDTM [S2C]` is recorded as 0.53.
Under “normalised enrichment score”, `VSTVRKLDFSDTM [A3T]` is recorded as 0.496.
`VSAVFKLDFSDTM [R5F]` — result for “normalised enrichment score”: -0.48.
Under “normalised enrichment score”, `VSAVRKLDFSTTM [D11T]` is recorded as 0.196.
Under “normalised enrichment score”, `VSAVRWLDFSDTM [K6W]` is recorded as 0.165.
Under “normalised enrichment score”, `VSAVRKLDMSDTM [F9M]` is recorded as 0.222.
Under “normalised enrichment score”, `VSAVCKLDFSDTM [R5C]` is recorded as 0.486.

Further values, each from its own experiment
`PhoQ, residues 284 288 289 292 302 303 AMDMFI` has a fold induction of 1.2 (PhoP, residues 12 14 15 18 19 IQFRS (Escherichia coli, UniProt P23836); Sort-seq, item: YFP reporter; E. coli; PhoQ-PhoP variant library, with: 10 µM Mg2+; baseline: high Mg2+ state, higher = stronger signaling).
